Assay results collected from several papers.
Each line is one published result; not all experiments were run side by side. Values joined by “and” are separate records of one study, mostly repeats; a detail may differ. ± gives the spread as reported.

SMILES	cell line	test	setting	scale	quantity	value
CCOc1c(C(C)(C)O)sc2cnc(Nc3ccc(N4CCC(N5CC6(COC6)C5)CC4)cc3OC)nc12	human atrial cardiomyocytes	caffeine-induced Ca transient	1, 3 and 10 µM	reference: vehicle	SR Ca content	increased
CC(C)C[C@@H]1NC(=O)[C@H](CCCNC(=N)N)NC(=O)[C@H](CCCCN)NC(=O)[C@H](CC(=O)O)NC(=O)[C@H](CCCCN)NC(=O)[C@@H](CO)NC1=O	Panc1_A8	–	1 µM, 24 h	reference: vehicle	MMP-2 activity	decreased
COC(=O)C1=CO[C@@H](O)[C@@H]2C(Cn3cc(C(O)(c4ccccc4)c4ccccc4)nn3)=CC[C@H]12	SK-N-SH	neuroprotection, MTT	0.075 µM, 24 h, together with: 250 µM H2O2	–	viability	73 ± 3.1%
CN[C@@H](C)C(=O)N[C@H]1CN(C(=O)Cc2ccccc2)CC[C@H]2CC[C@@H](C(=O)NCc3ccc(Br)cc3)N2C1=O	SK-OV-3	TNFα-dependent cell killing, trypan blue	1 µM, 48 h, together with: TNFα-blocking antibody 2 µg/mL	–	cell death	inhibited
COC(=O)C1=CO[C@@H](OC(C)=O)[C@@H]2C(Cn3cc(COCc4ccc(OC)cc4)nn3)=CC[C@H]12	SK-N-SH	neuroprotection, MTT	0.3 µM, 24 h, together with: 250 µM H2O2	–	viability	67.6 ± 0.5%
C[C@@H](O)[C@H](NC(=O)[C@@H]1CSSC[C@H](NC(=O)[C@@H](Cc2ccccc2)NC(=O)CN2CCCN3CCN(CCCN(CP(=O)(O)O)CC3)CC2)C(=O)N[C@@H](Cc2ccc(O)cc2)C(=O)N[C@H](Cc2c[nH]c3ccccc23)C(=O)N[C@@H](CCCCN)C(=O)N[C@@H]([C@@H](C)O)C(=O)N1)C(=O)O [copper-64 labelled]	AR-42J	–	4 nM, within 15 min	reference: added activity/mg protein	cell surface binding	5.2 ± 0.03%
[Cl][Au].[Se]=c1n(C2CCCCC2)ccn1C1CCCCC1	LoVo MDR	MTT	–	reference: LoVo MDR over LoVo	resistance factor	1.4
CN1C(=O)C2(Cc3ccc(CC45SSC(CO)(C(=O)N4C)N(C)C5=O)cc3)SSC1(CO)C(=O)N2C (racemic)	MCF7 cells	microarray	600 nM, fold change at least 2.0, together with: DFO 300 µM	reference: DFO alone	number of down-regulated transcripts	113
CC(C)C[C@H](NC(=O)[C@H](CCCCN)NC(=O)[C@H](CC(C)C)NC(=O)[C@H](CC(C)C)NC(=O)[C@H](CCCCN)NC(=O)[C@H](CCCCN)NC(=O)[C@H](CC(C)C)NC(=O)[C@H](CC(C)C)NC(=O)[C@H](CCCCN)NC(=O)[C@H](CC(C)C)NC(=O)[C@H](CC(C)C)NC(=O)[C@H](CCCCN)NC(=O)[C@H](CCCCN)NC(=O)[C@H](CC(C)C)NC(=O)[C@@H](N)CSSC[C@H](N)C(=O)N[C@@H](CC(C)C)C(=O)N[C@@H](CCC(=O)O)C(=O)N[C@@H](CCC(=O)O)C(=O)N[C@@H](CC(C)C)C(=O)N[C@@H](CC(C)C)C(=O)N[C@@H](Cc1c[nH]cn1)C(=O)N[C@@H](Cc1c[nH]cn1)C(=O)N[C@@H](CC(C)C)C(=O)N[C@@H](CCC(=O)O)C(=O)N[C@@H](CCC(=O)O)C(=O)N[C@@H](CC(C)C)C(=O)N[C@@H](CC(C)C)C(=O)N[C@@H](Cc1c[nH]cn1)C(=O)N[C@@H](Cc1c[nH]cn1)C(N)=O)C(N)=O	RG	cell viability, MTT	0.5 h, pH 7.4	–	IC50	> 100 µM
CC/C=C\C/C=C\C/C=C\C/C=C\C/C=C\C/C=C\CCC(=O)Nc1ccn(C2OC(CO)C(O)C2(F)F)c(=O)n1 (stereo not shown)	SK-OV-3	NCI60 screen	–	–	CC50	> 100 µM
CC(C)C[C@H](NC(=O)[C@H](CO)NC(=O)[C@H](Cc1c[nH]c2ccccc12)NC(=O)[C@H](Cc1ccccc1)NC(=O)[C@H](Cc1ccccc1)NC(=O)[C@H](CCC(N)=O)NC(=O)[C@@H]1CCCN1C(=O)[C@H](CCCNC(=N)N)NC(=O)[C@H](CCCNC(=N)N)NC(=O)[C@H](CCCNC(=N)N)NC(=O)[C@H](CCC(N)=O)NC(=O)[C@H](CCCNC(=N)N)NC(=O)[C@H](CCCNC(=N)N)NC(=O)[C@H](CCCCN)NC(=O)[C@H](CCCCN)NC(=O)[C@H](CCCNC(=N)N)NC(=O)CNC(=O)[C@@H](N)Cc1ccc(O)cc1)C(=O)N[C@@H](CS)C(=O)N[C@H](C(=O)N[C@@H](C)C(=O)O)[C@@H](C)O	Jurkat	CellTiter-Glo	15 µM, 18 h, 0.5% FBS	reference: control	ATP level	10%
O=C(O)CCC(NP(=O)(O)OCCC[C@@H](NC(=O)CCC(NC(=O)CCCCCNC(=O)CCCCCNC(=O)c1ccc([18F])cc1)C(=O)O)C(=O)O)C(=O)O (stereo partly shown)	CWR22Rv1	–	2 h	–	cell uptake	4.23 ± 0.64%
O=C(C[P+]([Au-][Cl])(c1ccccc1)c1ccccc1)[O][Ti+2][O]C(=O)C[P+]([Au-][Cl])(c1ccccc1)c1ccccc1.c1cc[cH-]c1.c1cc[cH-]c1	CAKI-1 cells	ELISA	10 µM, 6 h	–	IL-6 secretion	decreased
Cc1ccnc(Nc2c3c(nc4ccc(Cl)cc24)CCCC3)c1	SH-SY5Y	MTT	50 µM, 1 h pretreatment, 10% FBS, together with: H2O2	–	viability	48 ± 4.33%
COC(=O)C1=CO[C@@H](OC(C)=O)[C@@H]2C(Cn3cc(CCCO)nn3)=CC[C@H]12	SK-N-SH	neuroprotection, MTT	0.6 µM, 24 h, together with: 250 µM H2O2	–	viability	60.8 ± 0.8%
COC1CC(OC2CCC3(C)C(CCC45OC46CCC(C(C)=O)C6(C)C(OC(C)=O)C(OC(=O)c4ccccc4)C35)C2)OC(C)C1OC1OC(C)C(OC2OC(CO)C(O)C(O)C2O)C(OC)C1O (stereo not shown)	MDA435/LCC6-MDR1	cell growth, MDR reversal, SRB	10 µM, together with: doxorubicin	reference: doxorubicin alone over combination	fold reversal of IC50	1
CC[C@H](C)[C@@H](OC(=O)[C@@H](NC(=O)[C@H](C)OC(=O)[C@H](NC(=O)[C@H](OC(=O)[C@@H](NC(=O)[C@@H](C)OCc1ccccc1)C(C)C)[C@@H](C)CC)C(C)C)C(C)C)C(=O)N[C@@H](C(=O)OC(C)(C)C)C(C)C	NCI-460	cell growth or viability	–	–	GI50	> 10 µg/mL
[N]#[Os]([Cl])([Cl])[Cl].c1ccc(-c2ccnc3c2ccc2c(-c4ccccc4)ccnc23)cc1	A2780	ER-Tracker microscopy	10 µM, 4 h	reference: untreated	ER area increase	25.1%
CCCc1cc2c(c(OC)c1OC)OCO2	SK-OV-3	cell growth or viability, MTT	72 h	–	GI50	> 250 µM

SMILES	cell line	test	setting	scale	quantity	value
Clc1ccc2nc3c(c(Nc4ccc5ccccc5n4)c2c1)CCCC3	SH-SY5Y	MTT	50 µM, 1 h pretreatment, 10% FBS, together with: H2O2	–	viability	48.2 ± 1.57%
COC(=O)C1=CO[C@@H](OC(C)=O)[C@@H]2C(Cn3cc(C4(O)CCCCC4)nn3)=CC[C@H]12	SK-N-SH	neuroprotection, MTT	0.075 µM, 24 h, together with: 250 µM H2O2	–	viability	75.1 ± 0.9%
CCCCCCCCCCCCCC(=O)NCC(=O)N[C@@H](CCCNC(=N)N)C(=O)N[C@@H](Cc1c[nH]c2ccccc12)C(=O)N[C@@H](CCCCN)C(=O)N[C@H](C(=O)N[C@@H](Cc1ccccc1)C(=O)N[C@@H](CCCCN)C(=O)N[C@@H](CCCCN)C(=O)N[C@H](C(=O)N[C@@H](CCC(=O)O)C(=O)N[C@@H](CCCCN)C(=O)N[C@H](C(=O)NCC(=O)N[C@@H](CCC(N)=O)C(=O)N[C@@H](CC(N)=O)C(=O)N[C@H](C(=O)N[C@@H](CCCNC(=N)N)C(=O)N[C@@H](CC(=O)O)C(=O)NCC(=O)N[C@H](C(=O)N[C@H](C(=O)N[C@@H](CCCCN)C(=O)N[C@@H](C)C(=O)NCC(=O)N1CCC[C@H]1C(=O)N[C@@H](C)C(=O)N[C@H](C(=O)N[C@@H](C)C(=O)N[C@H](C(=O)N[C@H](C(=O)NCC(=O)N[C@@H](CCC(N)=O)C(=O)N[C@@H](C)C(=O)N[C@@H](C)C(=O)N[C@H](C(=O)N[C@H](C(N)=O)[C@@H](C)CC)[C@@H](C)O)C(C)C)C(C)C)C(C)C)C(C)C)[C@@H](C)CC)[C@@H](C)CC)C(C)C)[C@@H](C)CC)[C@@H](C)CC	Jurkat	western blot, item: caspase 9	3 or 6 µM, 16 h	–	cleaved over total caspase ratio	increased
CC(ON1C(C)(C)CCCC1(C)C)c1ccc(OC(=O)[C@@H](NC(=O)[C@@H]2CCCN2C(=O)[C@H](C)NC(=O)[C@H](C)NC(=O)CCC(=O)O)C(C)C)cc1 (stereo partly shown)	U87	cell viability, PrestoBlue	48 h, together with: HNE 0.68 µM	–	LC50	~150 µM
COc1cc(C)c(OC)c2c1OCO2	SK-OV-3	cell growth or viability, MTT	72 h	–	GI50	> 250 µM
COc1ccnc(Nc2c3c(nc4ccc(Cl)cc24)CCCC3)c1	SH-SY5Y	MTT	50 µM, 1 h pretreatment, 10% FBS, together with: H2O2	–	viability	39.1 ± 1.43%
Cc1cc(C)c(N2CCN(c3c(C)cc(C)cc3C)C2=[Se])c(C)c1.[Cl][Au]	LoVo-OXP colon cancer cells	MTT	–	reference: LoVo-OXP over LoVo IC50	resistance factor	1.6
C[C@@H]1O[C@H]2O[C@@H]3C4(O)C(=O)c5cccc(O)c5C(=O)C4(O)O[C@]3(C)[C@]21O (stereo partly shown)	MDA-MB-231 and HFF	MTT	–	reference: CC50 HFF over EC50 MDA-MB-231	selectivity index	3.02
CC(C)CC(O)(CC(C)C)c1cn(C(=O)N2CCCC2)nn1	mouse T-cells	N-terminal labeled proteins, N-terminal enrichment proteomics, item: CCDC97	1 nM, 6 h	reference: DMSO	SILAC ratio	4.78 ± 0.22
COc1ccc(CNc2c(NC3CCN(Cc4ccccc4)CC3)c(=O)c2=O)cc1OC	SH-SY5Y	neuroprotection, MTT	12.5 µM, 24 h pretreatment, together with: H2O2 650 µM for 4 h	–	cell survival	55.7%
COC(=O)C1=CO[C@@H](OC(C)=O)[C@@H]2C(Cn3cc(COCc4ccc(OC)c(OC)c4)nn3)=CC[C@H]12	SK-N-SH	neuroprotection, MTT	0.3 µM, 24 h, together with: 250 µM H2O2	–	viability	65.3 ± 0.21%
CCC(C)C(=O)OC1C2C3(C)CCC(OC4CC(OC)C(OC5OC(C)C(OC6OC(CO)C(O)C(O)C6O)C(OC)C5O)C(C)O4)CC3CCC23OC32CCC(C(C)=O)C2(C)C1OC(C)=O (stereo not shown)	MDA435/LCC6-MDR1	cell growth, MDR reversal, SRB	10 µM, together with: doxorubicin	reference: doxorubicin alone over combination	fold reversal of IC50	1
COC(=O)C1=CO[C@@H](OC(C)=O)[C@@H]2C(Cn3cc(CCN4C(=O)c5ccccc5C4=O)nn3)=CC[C@H]12	SK-N-SH	neuroprotection, MTT	0.3 µM, 24 h, together with: 250 µM H2O2	–	viability	60.8 ± 1.6%
CCCCCCCCC1(CCCCCCCC)c2cc(-c3cc4[n+]5c(c3)-c3cccc[n+]3[Ir-3]536([c]5c(c(C)cc(C)c5-c5cccc[n+]53)-c3cccc[n+]36)[n+]3ccccc3-4)ccc2-c2ccc(-c3cc4[n+]5c(c3)-c3cccc[n+]3[Ir-3]536([c]5c(c(C)cc(C)c5-c5cccc[n+]53)-c3cccc[n+]36)[n+]3ccccc3-4)cc21.F[P-](F)(F)(F)(F)F.F[P-](F)(F)(F)(F)F.F[P-](F)(F)(F)(F)F.F[P-](F)(F)(F)(F)F	SK-MEL-28	–	visible light 100 J/cm2	reference: dark EC50 over visible-light EC50	phototherapeutic index	288 and > 280
COC(=O)C1=CO[C@@H](OC(C)=O)[C@@H]2C(Cn3cc(-c4ccc(OC)cc4)nn3)=CC[C@H]12	SK-N-SH	neuroprotection, MTT	0.3 µM, 24 h, together with: 250 µM H2O2	–	viability	60.1 ± 1%
CC[C@H](C)[C@@H]([C@@H](CC(=O)N1CCC[C@H]1[C@H](OC)[C@@H](C)C(=O)N[C@H](C)[C@@H](O)c1ccccc1)OC)N(C)C(=O)[C@@H](NC(=O)[C@@H](NC)C(C)C)C(C)C	MDA-MB-231 cells	cytotoxicity	–	reference: MMAF EC50 over compound EC50	potency fold over MMAF	~170 fold
COC(=O)C1=CO[C@@H](OC(C)=O)[C@@H]2C(Cn3cc(C4(O)CCCC4)nn3)=CC[C@H]12	SK-N-SH	neuroprotection, MTT	0.075 µM, 24 h, together with: 250 µM H2O2	–	viability	52.3 ± 0.8%
COC(=O)C[C@](O)(CCCC(C)(C)OC(C)=O)C(=O)O[C@@H]1C(OC)=C[C@]23CCCN2CCc2cc4c(cc2[C@H]13)OCO4	pancreatic cancer cells	western blot	1 µM, 48 h	–	BCL-2 and BCL-XL protein level	no effect

For quick reference, copied from above:
SMILES	cell line	test	setting	scale	quantity	value
CC(C)CC(O)(CC(C)C)c1cn(C(=O)N2CCCC2)nn1	mouse T-cells	N-terminal labeled proteins, N-terminal enrichment proteomics, item: CCDC97	1 nM, 6 h	reference: DMSO	SILAC ratio	4.78 ± 0.22
COc1ccc(CNc2c(NC3CCN(Cc4ccccc4)CC3)c(=O)c2=O)cc1OC	SH-SY5Y	neuroprotection, MTT	12.5 µM, 24 h pretreatment, together with: H2O2 650 µM for 4 h	–	cell survival	55.7%
COC(=O)C1=CO[C@@H](OC(C)=O)[C@@H]2C(Cn3cc(COCc4ccc(OC)c(OC)c4)nn3)=CC[C@H]12	SK-N-SH	neuroprotection, MTT	0.3 µM, 24 h, together with: 250 µM H2O2	–	viability	65.3 ± 0.21%
CCC(C)C(=O)OC1C2C3(C)CCC(OC4CC(OC)C(OC5OC(C)C(OC6OC(CO)C(O)C(O)C6O)C(OC)C5O)C(C)O4)CC3CCC23OC32CCC(C(C)=O)C2(C)C1OC(C)=O (stereo not shown)	MDA435/LCC6-MDR1	cell growth, MDR reversal, SRB	10 µM, together with: doxorubicin	reference: doxorubicin alone over combination	fold reversal of IC50	1
